Assay results of several laboratories.
Each line is one published result; not all experiments were run side by side.

OC[C@@H](O)[C@H](O)[C@H](O)[C@@H](O)CO — result for “z-scored log2 fold change”: 0.166 (binding, equilibrium dialysis LC-MS; 5 µM, thermostabilized A2AR-BRIL construct; relative to: no-protein control, direction not given).
The EC50 of COc1ccc(NC(=O)N2CCCCN3[C@H](CN(C)S(C)(=O)=O)[C@H](c4ccc(C#Cc5ccccc5)cc4)[C@@H]3C2)cc1 is reported as 6 nM (Cryptosporidium parvum; parasite growth, high-content microscopy; Iowa (Bunch Grass Farm); 1% FBS).
CCOC(=O)c1cnc2ccc(-c3cn[nH]c3)cc2c1 gave an EC50 of over 200000 nM (Enterovirus D68; viral cytopathic effect; RD, STL-2014-12).
[N-]=[N+]=N[C@]1(CO)O[C@@H](n2ccc(N)nc2=O)[C@@H](F)[C@@H]1O gave an EC50 of 3 nM (murine hepatitis virus; viral genome copies, RT-qPCR; DBT-9, A59 ExoN− mutant).
For COc1ccnc(C(=O)N[C@H]2COC(=O)[C@H](Cc3ccccc3)[C@@H](O)[C@H](C)OC2=O)c1O, the EC50 was 0.545 µg/mL (Daphnia magna; immobilisation, semi-static water exposure; 48 h).
The EC50 of COc1ccc(NC(=O)N2CCCCN3[C@H](CN(C)C)[C@H](c4ccc(C#Cc5ccccc5)cc4)[C@@H]3C2)cc1 is reported as 9 nM (Cryptosporidium parvum; parasite growth, high-content microscopy; Iowa (Bunch Grass Farm); 1% FBS).
Cc1cc(OC(C)C)ccc1C(=O)C(C)(C)NC(=O)c1sccc1C gave an EC50 of 0.12 µg/mL (Ustilaginoidea virens; mycelial growth; PSA medium; 20 °C, suspension concentrate 400 g/L).
The EC50 of Cc1ccc(N(c2ccc(NC(=O)CN(C)c3ccccc3N3CCCC3=O)cc2)C(C)C)cc1 is reported as 354 nM (Plasmodium falciparum; male gamete formation; NF54 stage V gametocytes; 48 h).
Nc1nc2c(ncn2COCCO)c(=O)[nH]1 has an EC50 of 900 nM (human alphaherpesvirus 1; viral replication; HEL, KOS).
For O=P(O)(O)O[C@H]1O[C@H](CO)[C@@H](O)[C@H]1O, “z-scored log2 fold change” read 0.268 (binding, equilibrium dialysis LC-MS; 5 µM, thermostabilized A2AR-BRIL construct; relative to: no-protein control, direction not given).
For C[C@H]1C=C(Cc2ccccc2)C(=O)O1, the EC50 was over 10 µg/mL (Daphnia magna; immobilisation, semi-static water exposure; 48 h).
COC(=O)N[C@H](C(=O)N1CCC[C@H]1c1ncc(-c2ccc(-c3ccc(-c4cnc([C@@H]5CCCN5C(=O)[C@@H](NC(=O)OC)C(C)C)[nH]4)cc3)cc2)[nH]1)C(C)C gave an EC50 of over 29000 nM (human rhinovirus; viral replication; MRC5).
C=C(NC(=O)c1nccc(OC)c1O)C(=O)O[C@@H](C)[C@H](OC(=O)C(C)C)[C@@H](Cc1ccccc1)C(=O)O gave an EC50 of 0.011 µg/mL (Daphnia magna; immobilisation, semi-static water exposure; 48 h).
The EC50 of CCc1nc(-c2cnc3ccc(-c4ccc(C#N)cc4)cc3c2)no1 is reported as over 200000 nM (Enterovirus D68; viral cytopathic effect; RD, STL-2014-12).
With Cc1nc(NC(=O)N2CCC[C@H]2C(N)=O)sc1-c1ccnc(C(C)(C)C(F)(F)F)c1 the inhibition was -15.5% (NLRP3 inflammasome (mouse); mouse BMDM; 10 µM).
COc1ccnc(C(=O)N[C@@H](CO)C(=O)O)c1OCOC(=O)C(C)C has an EC50 of over 8.7 µg/mL (Daphnia magna; immobilisation, semi-static water exposure; 48 h).
With FC(F)(F)c1nc(-c2cnc3ccc(-c4ccc(-c5ccccc5)cc4)cc3c2)no1 the EC50 was over 200000 nM (Enterovirus D68; viral cytopathic effect; RD, STL-2014-12).

Some of these lines once more:
For COc1ccnc(C(=O)N[C@H]2COC(=O)[C@H](Cc3ccccc3)[C@@H](O)[C@H](C)OC2=O)c1O, the EC50 was 0.545 µg/mL (Daphnia magna; immobilisation, semi-static water exposure; 48 h).
Cc1cc(OC(C)C)ccc1C(=O)C(C)(C)NC(=O)c1sccc1C gave an EC50 of 0.12 µg/mL (Ustilaginoidea virens; mycelial growth; PSA medium; 20 °C, suspension concentrate 400 g/L).
